{"data": "Results from different studies", "note": "Every numbered part comes from another study and shows a few of its results, in no order."}
{"data": "Series 1", "Substance": "PhoQ, residues 284 288 289 292 302 303 TTSMTC", "technique": "Sort-seq", "refers to": "YFP reporter", "matrix": "E. coli", "setting": "PhoQ-PhoP variant library", "together with": "10 µM Mg2+", "reference": "high Mg2+ state", "reading": "higher = stronger signaling"}
{"target": "PhoP, residues 12 14 15 18 19 SHWTV (Escherichia coli, UniProt P23836)", "fold induction": 0.945}
{"target": "PhoP, residues 12 14 15 18 19 STHWV (Escherichia coli, UniProt P23836)", "fold induction": 17}
{"target": "PhoP, residues 12 14 15 18 19 QYCSL (Escherichia coli, UniProt P23836)", "fold induction": 2.33}
{"data": "Series 2", "target": "Sal-like protein 4, full length isoform B (SALL4, Homo sapiens, UniProt Q9UJQ4-2, residues 1-616)", "technique": "universal PBM", "molecule type": "double-stranded DNA, one strand shown", "matrix": "in vitro", "concentration": "not given", "setting": "8-mer, flanks averaged, mean of replicates", "reading": "higher = stronger binding", "Residues (chain)": "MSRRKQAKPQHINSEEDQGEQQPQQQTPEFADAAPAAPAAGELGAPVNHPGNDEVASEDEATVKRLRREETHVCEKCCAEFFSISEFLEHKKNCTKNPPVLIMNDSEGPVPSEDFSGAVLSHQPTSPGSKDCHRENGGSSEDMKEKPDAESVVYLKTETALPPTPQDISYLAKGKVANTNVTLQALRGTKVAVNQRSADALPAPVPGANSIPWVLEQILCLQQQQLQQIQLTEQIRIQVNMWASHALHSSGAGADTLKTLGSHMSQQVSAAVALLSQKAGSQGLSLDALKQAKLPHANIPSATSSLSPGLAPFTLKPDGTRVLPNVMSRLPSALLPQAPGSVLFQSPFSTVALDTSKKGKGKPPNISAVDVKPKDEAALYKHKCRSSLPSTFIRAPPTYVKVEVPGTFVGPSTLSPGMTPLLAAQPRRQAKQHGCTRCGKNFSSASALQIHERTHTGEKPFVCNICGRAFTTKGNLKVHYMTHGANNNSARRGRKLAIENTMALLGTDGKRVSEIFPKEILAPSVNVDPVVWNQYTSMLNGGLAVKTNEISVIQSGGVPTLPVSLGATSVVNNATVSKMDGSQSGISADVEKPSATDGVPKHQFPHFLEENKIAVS"}
{"Sequence": "GATCTTCC", "E-score": -0.217}
{"Sequence": "ATTCACGA", "E-score": 0.191}
{"Sequence": "GATTGCCA", "E-score": -0.124}
{"Sequence": "ACTACAAC", "E-score": 0.135}
{"Sequence": "CGGAAGTC", "E-score": -0.225}
{"data": "Series 3", "target": "Prothrombin, mature alpha-thrombin (F2, Homo sapiens, UniProt P00734)", "technique": "aptamer microarray, sandwich", "molecule type": "DNA with 2'F-ANA", "matrix": "in vitro", "concentration": "200 nM", "setting": "whole 15-mer aptamer, many near background", "together with": "Cy3 exosite-II aptamer, 400 nM", "reading": "higher = stronger binding", "sequence": "GGTTGGTGTGGTTGG"}
{"Modification": "2'F-ANA at 9 14", "mean fluorescence intensity [a.u.]": 210}
{"Modification": "2'F-ANA at 1 2 3 4 5 6 7 8 9 13 15", "mean fluorescence intensity [a.u.]": 52.8}
{"Modification": "2'F-ANA at 1 5 7 8 9 13 14", "mean fluorescence intensity [a.u.]": 50.6}
{"Modification": "2'F-ANA at 2 3 4 6 7 13 14", "mean fluorescence intensity [a.u.]": 227}
{"Modification": "2'F-ANA at 2 3 4 5 7 8 11 12 13 14 15", "mean fluorescence intensity [a.u.]": 54.6}
{"Modification": "2'F-ANA at 1 2 7 9 13 14", "mean fluorescence intensity [a.u.]": 59.9}
{"Modification": "2'F-ANA at 1 2 10 11 14 15", "mean fluorescence intensity [a.u.]": 54.9}
{"Modification": "2'F-ANA at 1 3 5 6 8 9 10 11 12 14 15", "mean fluorescence intensity [a.u.]": 45.9}
{"data": "Series 4", "target": "Interferon regulatory factor 5, full length, phosphomimetic (IRF5, Homo sapiens, UniProt Q13568-2, residues 1-514, K96S/S451D/S453D/S456D/S462D)", "technique": "protein-binding microarray", "molecule type": "double-stranded DNA, one strand shown", "matrix": "in vitro", "concentration": "250 nM", "setting": "60-bp whole probe", "together with": "salmon DNA 0.4 mg/ml", "reference": "random background probes", "reading": "higher = stronger binding", "constant ends, left off below": "GCCTAGCAC … GTCTTGATTCGCTTGACGCTGCTG"}
{"Sequence": "TTAGGTATCGGGTTACGGTTAGTGCTA", "log fluorescence": "4.4 z-score"}
{"Sequence": "TTAGGCCTCCTTCTCCTTTAGTGCTAG", "log fluorescence": "-0.352 z-score"}
{"Sequence": "GACGGTCTCGATCTCGGGACGTGCTAG", "log fluorescence": "-0.0831 z-score"}
{"Sequence": "GACGATTCCAGGTTCGAGACGTGCTAG", "log fluorescence": "-0.0031 z-score"}
{"Sequence": "GACGAGTTCAGTTTCGAGACGTGCTAG", "log fluorescence": "5.33 z-score"}
{"Sequence": "TTAGGACTGCTTTTTCTTTAGTGCTAG", "log fluorescence": "0.495 z-score"}
